{"data": "Experimental data from different studies", "note": "A part holds a random share of what one study measured."}
{"data": "Block 1", "target": "Histone acetyltransferase KAT6A, winged helix 1, GST fusion (KAT6A, Homo sapiens, UniProt Q92794, residues 1-85)", "method": "protein binding microarray", "molecule type": "double-stranded DNA, one strand shown", "medium": "in vitro", "tested at": "not given", "notes": "8-mer, flanks averaged, mean of 2 arrays, mostly near background", "baseline": "not given", "reading": "higher = stronger binding", "Target sequence (chain)": "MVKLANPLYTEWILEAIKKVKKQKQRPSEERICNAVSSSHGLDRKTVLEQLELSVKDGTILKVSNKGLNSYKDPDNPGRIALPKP"}
{"Sequence": "GTGTTAAC", "E-score": 0.114}
{"Sequence": "AAGTTAAT", "E-score": -0.208}
{"Sequence": "GGATGTCA", "E-score": 0.0826}
{"Sequence": "CGTACCTA", "E-score": 0.0512}
{"Sequence": "CGCTCCCC", "E-score": 0.321}
{"Sequence": "GATTAATC", "E-score": -0.0502}
{"Sequence": "CGCTGTCA", "E-score": 0.0519}
{"Sequence": "CATGGATA", "E-score": -0.199}
{"Sequence": "CGATAAAG", "E-score": 0.0822}
{"data": "Block 2", "target": "RING finger protein unkempt homolog, zinc fingers 1-6, GST-SBP tag (UNK, Homo sapiens, UniProt Q9C0B0, residues 30-357)", "method": "RNA Bind-n-Seq", "molecule type": "RNA", "medium": "in vitro", "tested at": "not given", "notes": "RNA with constant flanks, human-mouse chimeric sites, ends assumed", "baseline": "input RNA pool", "reading": "higher = stronger binding", "constant ends, left off below": "GGGAGUUCUACAGUCCGACGAUC … CAACAGAGGAUUGAGCAUCA", "sequence of UniProt Q9C0B0 (30-357, looked up)": "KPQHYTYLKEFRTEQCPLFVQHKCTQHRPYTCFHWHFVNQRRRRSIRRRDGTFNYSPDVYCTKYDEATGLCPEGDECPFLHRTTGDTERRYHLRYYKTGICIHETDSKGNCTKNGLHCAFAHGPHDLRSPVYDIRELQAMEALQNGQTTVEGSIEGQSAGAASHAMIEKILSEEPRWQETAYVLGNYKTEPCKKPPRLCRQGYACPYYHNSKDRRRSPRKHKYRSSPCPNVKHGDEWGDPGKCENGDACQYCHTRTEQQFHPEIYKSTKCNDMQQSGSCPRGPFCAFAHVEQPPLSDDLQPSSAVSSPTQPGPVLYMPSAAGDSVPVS"}
{"Sequence": "GGGGAGAAACCUUAUGAGUGUGUGCAGUGUGGGAAAUCCUACAGUCAGAGCUCAAACCUCUUCAGACAUCAGAGACGACACAAUGCAGAAAAACUUCUGAAUGUUGUGAAGGUUUAAGAA", "bound/input enrichment": "0.175 ratio"}
{"Sequence": "UCUUUAAAUGCACUACAACCUUUUCUGACAGUGCUUUCCCUCCCAUAGAUCCACGUUCACACUAGAAGAGCAAAGGCUUUGCACGGAGCUCAAACAUCUGAUGAAGAAAGAUUUCUGAGA", "bound/input enrichment": "0.837 ratio"}
{"Sequence": "GUCAACAGCUGCCUCAACCCCAUCCUCUAUGCUUUCUUGGAUGAGAACUUCAAGGCCUGCUUCCGCAAGUUCUGCUGUGCAUCUGCCCUGCGCCGGGACGUGCAGGUUUCUGAUCGUGUG", "bound/input enrichment": "0.322 ratio"}
{"Sequence": "AGAUUCCCUCUCUUAAAACCUCCUCCGAAGUUGGAGUCUCUUAUAGAUGCCUCAUCCCCUGUUAGCGUUUUAGUUUGGACCACCCAGCCUUGGACAAUUCCCGCCAACCAGGCAAUUUGC", "bound/input enrichment": "0.889 ratio"}
{"Sequence": "GAUAGGAAAAGCUUGUUGGAGACCCGCUUGCAUGUCACUGGUAGAGACCUGAGGUGUCAAAUAGCUGAAACCUUUGGAUUUCAAGAAAAUUACAUCAAGAUCGUAAUAAAUAAGAAACAG", "bound/input enrichment": "0.388 ratio"}
{"Sequence": "AAAAUAGACUAUGGCGAGUACAUGGAUAAAAACAAUGUGAGGCGACAAGCAACAACAAUCAUAGCUGAUAACAUUAUAUUUCUGAGUGACCAGACAAAAGAAAAGGCAUAGAACGGAUGA", "bound/input enrichment": "2.61 ratio"}
{"data": "Block 3", "target": "Sal-like protein 4, full length isoform B (SALL4, Homo sapiens, UniProt Q9UJQ4-2, residues 1-616)", "method": "universal PBM", "molecule type": "double-stranded DNA, one strand shown", "medium": "in vitro", "tested at": "not given", "notes": "8-mer, flanks averaged, mean of replicates", "reading": "higher = stronger binding"}
{"Sequence": "CCCGGGAC", "E-score": -0.326}
{"Sequence": "GGCACGGA", "E-score": -0.183}
{"Sequence": "CAGGACCC", "E-score": -0.359}
{"Sequence": "AGCTGCTA", "E-score": -0.122}
{"Sequence": "AATCGTGT", "E-score": 0.115}
{"Sequence": "GGTCACTA", "E-score": -0.0239}
{"data": "Single results of other studies"}
{"Molecule": "PhoQ, residues 284 288 289 292 302 303 SLANIV", "target": "PhoP, residues 12 14 15 18 19 LHHVQ (Escherichia coli, UniProt P23836)", "assay": "Sort-seq, item: YFP reporter", "test system": "E. coli", "setting": "PhoQ-PhoP variant library, with: 10 µM Mg2+", "scale": "baseline: high Mg2+ state, higher = stronger signaling", "measurement": "fold induction", "value": 1.06}
{"note": "A few entries again (block 1):"}
{"Sequence": "CATGGATA", "E-score": -0.199}
{"Sequence": "CGATAAAG", "E-score": 0.0822}
